Published values pooled from the literature.
Numbered parts are unrelated; each lists some results of a single study. Substitutions count along the parent as printed. pEC50: −log10 of the molar value.
UniProt P41143, sequence (whole entry, looked up): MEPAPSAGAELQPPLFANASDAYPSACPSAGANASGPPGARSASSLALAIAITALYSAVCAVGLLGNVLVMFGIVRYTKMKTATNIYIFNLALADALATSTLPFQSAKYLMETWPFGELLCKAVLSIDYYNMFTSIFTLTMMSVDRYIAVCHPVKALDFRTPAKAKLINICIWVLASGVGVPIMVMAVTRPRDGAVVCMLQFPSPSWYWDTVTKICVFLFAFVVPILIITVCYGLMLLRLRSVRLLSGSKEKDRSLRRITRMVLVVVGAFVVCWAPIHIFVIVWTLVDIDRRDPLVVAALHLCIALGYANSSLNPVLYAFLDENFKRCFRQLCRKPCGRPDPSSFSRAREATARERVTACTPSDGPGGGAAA

Block 1 — target: CCNB3, cyclin fold, Cln2 fusion (human); technique: yeast growth competition, sequencing; sample: yeast; setting: strong parent motif; baseline: not given; direction: higher = stronger binding; starting sequence: viral docking peptide; CKVKRKLFGSENI
Under “normalised enrichment score”, `CKVKRALFGSENI [K6A]` is recorded as 0.559.
Under “normalised enrichment score”, `CKVKAKAFGSENI [R5A L7A]` is recorded as 0.213.
Under “normalised enrichment score”, `CKVKKKLLGSENI [R5K F8L]` is recorded as 0.0465.
Under “normalised enrichment score”, `CKVKAKLFGSENI [R5A]` is recorded as 0.587.
Under “normalised enrichment score”, `CKVKRKLFGSENA [I13A]` is recorded as 1.26.

Block 2 — effect on: binding; technique: phage display NGS; molecule type: peptide; tested at: concentration not given; baseline: input library
Target: UDP-N-acetylglucosamine--peptide N-acetylglucosaminyltransferase 110 kDa subunit (OGT, Homo sapiens, UniProt O15294)
UniProt O15294, sequence (whole entry, looked up): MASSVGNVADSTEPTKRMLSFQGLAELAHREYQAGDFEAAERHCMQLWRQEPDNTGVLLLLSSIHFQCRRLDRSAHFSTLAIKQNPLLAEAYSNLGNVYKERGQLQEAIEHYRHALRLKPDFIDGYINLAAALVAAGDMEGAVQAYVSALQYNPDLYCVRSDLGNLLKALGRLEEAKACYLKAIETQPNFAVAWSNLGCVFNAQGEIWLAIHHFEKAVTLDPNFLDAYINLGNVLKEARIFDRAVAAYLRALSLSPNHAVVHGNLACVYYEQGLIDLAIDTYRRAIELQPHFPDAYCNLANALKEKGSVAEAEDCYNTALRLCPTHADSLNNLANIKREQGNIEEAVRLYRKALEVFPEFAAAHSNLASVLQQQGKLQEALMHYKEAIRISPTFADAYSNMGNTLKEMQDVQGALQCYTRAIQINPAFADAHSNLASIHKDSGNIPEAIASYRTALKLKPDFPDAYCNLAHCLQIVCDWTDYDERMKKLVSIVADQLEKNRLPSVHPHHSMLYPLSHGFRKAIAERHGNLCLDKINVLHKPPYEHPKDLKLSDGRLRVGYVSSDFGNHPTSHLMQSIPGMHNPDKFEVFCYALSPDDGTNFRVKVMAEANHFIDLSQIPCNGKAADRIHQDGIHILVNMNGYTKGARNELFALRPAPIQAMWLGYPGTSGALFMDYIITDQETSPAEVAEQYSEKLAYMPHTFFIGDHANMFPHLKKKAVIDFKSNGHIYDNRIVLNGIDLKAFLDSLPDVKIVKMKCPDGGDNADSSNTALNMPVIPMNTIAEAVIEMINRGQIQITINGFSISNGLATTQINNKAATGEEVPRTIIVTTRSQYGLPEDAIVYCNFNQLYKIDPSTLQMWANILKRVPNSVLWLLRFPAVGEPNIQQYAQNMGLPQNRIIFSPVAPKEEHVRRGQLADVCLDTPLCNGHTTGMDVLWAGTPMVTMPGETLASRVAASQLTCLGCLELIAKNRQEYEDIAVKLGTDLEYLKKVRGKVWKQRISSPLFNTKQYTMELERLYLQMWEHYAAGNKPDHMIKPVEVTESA
Under “enrichment fold change”, `HAGTIQPVYQISYVK` is recorded as 5.58.
Under “enrichment fold change”, `SYNHRHSTSYHIDHR` is recorded as 7.33.
For `HWFPTHTHYFMRHTS`, “enrichment fold change” read 9.59.
`ITSMDYTPAYQLRYS`: “enrichment fold change” 2.45.
`NMSDHHRTSYYHVRH`: “enrichment fold change” 5.92.
Under “enrichment fold change”, `QRVQHSHHYMHQIAE` is recorded as 10.1.
For `ATRETEPAYQIVYTK`, “enrichment fold change” read 3.24.
For `QPSRQHHAEHHPWHR`, “enrichment fold change” read 9.14.

Block 3 — target: tungstate, free oxyanion; technique: microfluidic competitive inhibition; sample: in vitro, cell-free expressed; tested at: not given; direction: lower = stronger binding
Setting: derived from inhibition constants, unchanged parent 2230 nM
Starting sequence: PafA, mature enzyme, eGFP fusion (Elizabethkingia meningoseptica, UniProt Q9KJX5); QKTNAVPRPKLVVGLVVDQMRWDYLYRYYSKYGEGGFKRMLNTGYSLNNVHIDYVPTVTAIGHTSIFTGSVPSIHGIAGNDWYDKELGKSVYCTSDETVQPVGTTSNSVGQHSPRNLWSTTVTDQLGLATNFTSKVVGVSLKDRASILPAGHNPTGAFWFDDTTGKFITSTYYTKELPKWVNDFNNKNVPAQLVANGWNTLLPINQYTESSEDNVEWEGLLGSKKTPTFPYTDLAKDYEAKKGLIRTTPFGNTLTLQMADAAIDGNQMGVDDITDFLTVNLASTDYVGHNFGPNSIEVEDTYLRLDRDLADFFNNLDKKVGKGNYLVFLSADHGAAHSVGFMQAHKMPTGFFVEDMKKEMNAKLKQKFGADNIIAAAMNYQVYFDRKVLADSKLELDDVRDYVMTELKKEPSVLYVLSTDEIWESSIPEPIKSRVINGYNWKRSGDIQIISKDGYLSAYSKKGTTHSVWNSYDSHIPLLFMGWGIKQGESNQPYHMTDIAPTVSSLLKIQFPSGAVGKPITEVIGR
`P190V` — result for “oxyanion analog dissociation constant”: 2.03 µM.
`Q19G`: “oxyanion analog dissociation constant” 34.6 µM.
`V13G` — result for “oxyanion analog dissociation constant”: 2.23 µM.
`L329V`: “oxyanion analog dissociation constant” 2.39 µM.
`T174V`: “oxyanion analog dissociation constant” 2.31 µM.
Under “oxyanion analog dissociation constant”, `P227G` is recorded as 1.73 µM.
Under “oxyanion analog dissociation constant”, `Y325V` is recorded as 2.08 µM.
`I427V`: “oxyanion analog dissociation constant” 2.54 µM.

Other studies, line by line
The pEC50 of CCN(CC)C(=O)c1ccc(C2=CC3(CCNCC3)Oc3cccc(O)c32)cc1 is reported as 7.34 (Delta-type opioid receptor, with Gi3 (OPRD1, Homo sapiens, UniProt P41143); human cells).

Excerpt of the above (block 1):
Under “normalised enrichment score”, `CKVKKKLLGSENI [R5K F8L]` is recorded as 0.0465.
Under “normalised enrichment score”, `CKVKAKLFGSENI [R5A]` is recorded as 0.587.
Under “normalised enrichment score”, `CKVKRKLFGSENA [I13A]` is recorded as 1.26.
